Experimental data of several laboratories.
Numbered parts are unrelated; each lists some results of a single study. Substitutions count along the parent as printed.

Sample 1
Target: Fragile X messenger ribonucleoprotein 1, C-terminal low-complexity region (Fmr1, Mus musculus, UniProt P35922)
Technique: RNA Bind-n-Seq
Molecule type: RNA
Sample: in vitro
Tested at: 200 nM
Notes: whole 134-nt RNA, ends assumed
Added: 150 mM LiCl
Baseline: input library
Direction: higher = stronger binding
Library: 7-deaza-guanosine replaces G
Constant ends, left off below: GGGAGUUCUACAGUCCGACGAUC … UGGAAUUCUCGGGUGUCAAGG
| Oligonucleotide | log2 enrichment |
| --- | --- |
| CAAGUCCUGUGCUACACAUCGUAUGUACCGAAUCGGGUUUUGGGUUUUGGUUUUGGAAAGUAUUAUGUUACGCCGUUCGGAUCUGCACUU | -1.86 |
| CACAGACAACACGCACCCACACAGACACAGAGGGAAGGGGUUGGGAUGGGGACAGGGUGCACAGCAAAACGGGGUAGGACCCCAGCCCCU | 0.1 |
| GUCCUGUGCUACACAUCGUAUGUACCGAAUCAAAGUGUGUGUGUGUGUGUGUGUGUAAAAAAGUAUUAUGUUACGCCGUUCGGAUCUGCA | -0.547 |
| AUGGAUGACCCCUCUGUGGGCCCCAAGAUCCCCCAGGCUUUGGAGAAGAUCCUGCAGCUGAAGGAGAGCCGCCAGGAAGAGAUGAAUUCU | 0.496 |
| ACCAUGCAGGUGGGCAUCUUUGGGAAGUGGGGCAAGGGGGGGAUAGGGAGGGGGGUAACACUUUGGGAACAGGUGGUCCCAGGUCGUCUC | 1.57 |
| UCAAGUCCUGUGCUACACAUCGUAUGUACCGAAUCGGAGGUUUGGUUUUUUUGGAAAGUAUUAUGUUACGCCGUUCGGAUCUGCACUUCC | -0.836 |
| UGUGCUACACAUCGUAUGUACCGAAUCGGGGUUUUUUUGGGGUUUUUUUGGGGUUUUUUUGGGAAAGUAUUAUGUUACGCCGUUCGGAUC | 2.04 |
| UAACUUUAGAGGAGGAUCUGAUGGAUAUGGCAGUGGACGUGGAUUUGGGGAUGGCUAUAAUGGGUAUGGAGGAGGACCUGGAGGUGGCCA | -1.58 |
| UCAAGUCCUGUGCUACACAUCGUAUGUACCGAAUCGGAAAGGUUUUUUUGGUGGAAAGUAUUAUGUUACGCCGUUCGGAUCUGCACUUCC | -1.15 |
| CACAGACAACACGCACCCACACAGACACAGAGGGAAGGGGUUGGGAUGGGGACAGGGUGCACAGCGGGGCGGGGUAGGACCCCAGCCCCU | -0.189 |

Sample 2
Target: RNA binding protein fox-1 homolog 2, RRM domain, GST-SBP tag (RBFOX2, Homo sapiens, UniProt O43251-10, residues 100-194)
Technique: RNA Bind-n-Seq
Molecule type: RNA
Sample: in vitro
Tested at: 365 nM
Notes: natural RNA segment, single round, ends assumed
Baseline: no-protein control
Direction: higher = stronger binding
Constant ends, left off below: GGGAGUUCUACAGUCCGACGAUC … UGGAAUUCUCGGGUGCCAA
Construct (chain): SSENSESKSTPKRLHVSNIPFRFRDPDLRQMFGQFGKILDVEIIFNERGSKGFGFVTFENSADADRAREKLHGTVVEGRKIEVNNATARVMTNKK
| Oligonucleotide | RBNS enrichment (R) |
| --- | --- |
| AAAAUGUGAGGAAUUACCUGUCAAAUUAGAUUGAGCUCAGAGUAAAUAGAUGAGCACAUUUAUAACUCUAAAUUAGACUUUCUAUCAAAUGGGACCAAACAUAUGGAAGG | 0.26 |
| GGGGAAACCUCCUUCCACCUGAGCUUGCUUGAAGGGACCCAGAGUCUUUGGGCCCAGAUCUUUAAACCUUUGUGUCGUGUUGCAGCAGAGUGACGAUGGGGGUUGGGGGG | 5.35 |
| CUCCAGAUGGGAAGGUUUUAAGAGUCACACUGGCAUGGAAGGCUUAUCUGCCAUUCUAUUUAUAGCCUGAAAUGAUUCUGGCCUACCCUGUCCUGUCUGUAUGAUCUAAA | 0.327 |
| AAGGUAGACUCUUCCCUAGGACUGACGAGUUACGGCUGCCAGAUGCCUGCAUGGGAAGAGGUGGACAUCUGCAUCUUCCAUUGGUGGUCAAGGAUGGGUGUGGGAGAACC | 1.12 |
| CGAUGUACAUAACUAUUUAAUGCAGCGGCAGCGGCGACAGCCUUCCCUGAGAGGACUUAAAAGCAGAAGGAAACCGAGAUGCUUCCCGCAGCCGUGGACGAUUCUCCAGG | 0.363 |
| UAAGUCUUUGAUUUUAUGAUUUAUUUCUGUAUGGCACUGGAUAAAAAUAUUAUUAAAACAUUUCUGCCUAUGGUUAAAAAUCCAGAAAUCAAAGAAAUGAUCUUCAUGAU | 0.522 |
| ACUGUGUCCUUGGUGUUGGUUCUGAUUAAGACUCACUGAGAUCCAGUGCUCUUGAGCUGGGUCUCAGUCCCCUCCCAUGUCCUGUGCUCUGCCGCCACUGUUUUCAUUGU | 0.482 |
| ACUAUAUAUAUUUCUAGAAGGGGCUAUGCAUAUUCAAUGUAUUGAGAACCAAAGCAACCACAAAUGCAUAAAUGCAUAAUUUAUGGUCUUCAACCAAGGCCACAUAAUAA | 0.567 |
| UUUUUAUUUGGGCAUAAAAGUUGUUGCCUUUAUUUGUAAAGCUGUUAUAAAUAUAUAUUAUAUAAAUAUAUGACAAAGGAAAAUGUUUCAGAUGUCUAUUUGUAUAAUUA | 1.88 |
| UUCUGUAUUGGUCUCUAGGUGUAGCCUUUACUUCCUUUACUGUUGGCGUGUUAUGCUCCCAGUUCCCCUAUAGAGUCGUCUACACUUCCUCCCUGUGCUCUUCACUGGCC | 0.555 |

Sample 3
Target: CCND3, cyclin fold, Cln2 fusion (human)
Technique: yeast growth competition, sequencing
Sample: yeast
Notes: weak parent motif
Baseline: not given
Direction: higher = stronger binding
Starting sequence: CDC25A docking peptide (human); PPHRRRLLFACSP
| Variant | normalised enrichment score |
| --- | --- |
| R5I | 0.162 |
| H3V | 0.113 |
| P1Y | 0.159 |
| L8D | 0.0878 |
| F9D | 0.0756 |
| H3E | 0.0854 |
| R4A | 0.124 |
| P13Y | 0.177 |

Further values, each from its own experiment
| Substance | target | assay | system | setting | scale | measurement | result |
| --- | --- | --- | --- | --- | --- | --- | --- |
| PhoQ, residues 284 288 289 292 302 303 SNGLAW | PhoP, residues 12 14 15 18 19 NQFFI (Escherichia coli, UniProt P23836) | Sort-seq, item: YFP reporter | E. coli | PhoQ-PhoP variant library, added: 10 µM Mg2+ | baseline: high Mg2+ state, higher = stronger signaling | fold induction | 18.6 |

A few entries again (sample 3):
| Variant | normalised enrichment score |
| --- | --- |
| L8D | 0.0878 |
| F9D | 0.0756 |
| H3E | 0.0854 |
